Measured values from different studies.
Compare with care: the assays were run in different laboratories. ± gives the spread as reported.

Under “patients with high MCH”, CS(=O)(=O)CCCn1c(Cn2c(=O)n(CC(F)(F)F)c3ccncc32)cc2cc(Cl)ccc21 is recorded as 3% (RSV-infected infants; concentration not given, all dose cohorts).
O=C(c1cccc(-c2nc3ccccc3[nH]2)n1)N1CCN(C(=O)c2cccc(-c3nc4ccccc4[nH]3)n2)CC1 gave a rearing count of 22.2 (functional observational battery; male Sprague Dawley rats; 80 mg/kg/day, day 21, 14 days dosing).
CC[C@H](C)[C@H](NC(=O)[C@@H](N)CCCNC(=N)N)C(=O)N[C@H](C(=O)N1CCC[C@H]1C(=O)N[C@@H](C)C(N)=O)C(C)C gave an MRT of 4.2 min (human, plasma; intravenous, 8 mg/kg, single dose, healthy volunteers).
Under “PXR protein level increase”, O=c1c(O[C@@H]2O[C@H](CO)[C@@H](O)[C@H](O)[C@H]2O)c(-c2ccc(O)c(O)c2)oc2cc(O)cc(O)c12 is recorded as 69.7% (rat, liver; intravenous, 5 mg/kg, 7 days; relative to: control).
With CCCCCCCCCC[N+](C)(C)Cc1ccccc1 the intrinsic clearance was 1.43 mL/h/mg protein (substrate depletion; human liver microsomes; 0.5 µM, 0 to 3 h, 37 °C, with: NADPH).
CCc1ccccc1Nc1ccc2c(c1)C(c1ccccc1F)=NC(C)C(=O)N2 (stereo not drawn) has a solubility of < 1 µM (shake flask; PBS; 24 h, pH 7.4).
`H-HGLASTLTRWAHYNALIRAFGGG-NH2 (C-amide)` — result for “time to onset of degradation”: 1 h (RP-HPLC; rat serum; 37 °C).
With CNC(=O)c1ccc(-c2cnn3ccc(C(=O)N(C)c4ccc(Cl)c(C(=O)OC)c4)cc23)cc1 the Cmax was 129 ng/mL (beagle dogs, both sexes, plasma; oral, 500 mg/kg/dose, 1000 mg/kg/day, day 1).
NC(=O)c1nc(F)c[nH]c1=O has a solubility of 4 µg/mL (UV-Vis spectrophotometry; supercritical CO2; 120 min, 338 K, 12 MPa, 384.17 kg/m^3).
With CSCC[C@@H]1NC(=O)[C@H](CC(=O)O)NC(=O)CNC(=O)[C@H](CCCNC(=N)N)NC(=O)[C@H](C)NC(=O)[C@H](CCC(=O)O)NC(=O)[C@H](CCCNC(=N)N)NC(=O)[C@@H]2CSSC[C@@H]3NC(=O)[C@H](CO)NC(=O)[C@H]([C@@H](C)O)NC(=O)[C@@H]4CCCN4C(=O)[C@H](C)NC(=O)[C@H](Cc4c[nH]c5ccccc45)NC(=O)[C@H](CC(=O)O)NC(=O)CNC(=O)[C@H](CCCNC(=N)N)NC(=O)CNC(=O)[C@H](CCC(N)=O)NC(=O)[C@@H]4CCCN4C(=O)[C@@H](NC(=O)CNC(=O)C(C)F)CSSC[C@H](NC(=O)CNC(=O)[C@H](C)NC(=O)[C@H](CC(C)C)NC(=O)[C@H](CSSC[C@@H](C(=O)NCC(N)=O)NC(=O)[C@H]([C@@H](C)O)NC(=O)[C@H](CCCNC(=N)N)NC(=O)[C@@H]4CCCN4C1=O)NC(=O)[C@H](CC(=O)O)NC(=O)[C@H](CO)NC(=O)[C@H](CC(=O)O)NC(=O)[C@H](CCC(N)=O)NC(=O)[C@H](CO)NC3=O)C(=O)N[C@@H](C(C)C)C(=O)N2 (stereo partly drawn) [fluorine-18 labelled] the tissue uptake was 0.16 ± 0.06 %ID/g (nude mouse, U-87 MG xenograft, muscle; intravenous, 2.5 h, with: cyclo(RGDyK) co-injected).
For Cn1c(COP(=O)(NCCBr)NCCBr)cnc1[N+](=O)[O-], the blood-to-plasma ratio was 1.61 (human blood; 0.2 and 2 µM, 0.5 h, 37 °C).
CN[C@@](C)(C[18F])C(=O)O has a tissue uptake of 7.3 ± 1.3 %ID/g (SCID mouse A549 xenograft, kidney; 60 min, post injection).
